Measurements collected from several papers.
Compare with care: the assays were run in different laboratories. Numbers after ± are the reported error.
TDP1: Tyrosyl-DNA phosphodiesterase 1 (TDP1, Homo sapiens, UniProt Q9NUW8)
UniProt Q9NUW8, sequence (whole entry, looked up): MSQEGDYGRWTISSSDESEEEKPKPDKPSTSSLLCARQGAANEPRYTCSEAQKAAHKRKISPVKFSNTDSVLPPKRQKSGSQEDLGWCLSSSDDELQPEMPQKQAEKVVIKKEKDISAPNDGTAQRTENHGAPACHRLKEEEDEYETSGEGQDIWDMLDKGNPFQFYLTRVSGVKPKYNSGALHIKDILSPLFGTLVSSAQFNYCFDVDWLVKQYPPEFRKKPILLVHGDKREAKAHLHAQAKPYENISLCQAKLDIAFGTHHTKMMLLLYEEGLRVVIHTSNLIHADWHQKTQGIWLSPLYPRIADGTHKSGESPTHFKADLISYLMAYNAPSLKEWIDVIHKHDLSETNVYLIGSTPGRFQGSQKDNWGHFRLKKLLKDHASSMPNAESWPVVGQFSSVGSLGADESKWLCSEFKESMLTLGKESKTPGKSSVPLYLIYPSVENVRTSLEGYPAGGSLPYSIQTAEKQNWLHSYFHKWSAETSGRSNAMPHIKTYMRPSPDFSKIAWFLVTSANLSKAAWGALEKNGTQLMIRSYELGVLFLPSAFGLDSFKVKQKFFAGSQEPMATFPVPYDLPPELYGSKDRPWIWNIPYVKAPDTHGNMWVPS

Compound	tested on	assay	conditions	measurement	value
COc1cc(-c2cc(C(C)=O)n3ccccc23)cc(OC)c1CN1CC(O)C1	MV4-11	cell growth or viability, ATP luminescence	–	IC50	1.95 µM
Nc1nc2cnc(C(=O)N3CCOC[C@@H]3c3ccc(C(F)(F)F)cc3)cc2c2c1COC2	DOHH-2	cell growth	–	IC50	0.051 µM
CN(C)C(=O)c1cccc(N2Cc3cn(Cc4ccc(F)c(F)c4)nc3C2)c1	HEK293 expressing GluA1 and GluA2	glutamate excitotoxic cell death, CellTox Green	added: glutamate	IC50	0.005 µM
O=C1CS/C(=N\N=C\c2cccc3cc4ccccc4nc23)N1c1ccc(F)cc1	SK-BR-3	cell growth or viability, MTT	48 h	IC50	> 50 µM
CO[C@@H]1[C@@H](OC(=O)c2ccc(C)[nH]2)[C@@H](O)[C@H](Oc2ccc3c(O)c(NC(=O)c4c[nH]c(C(=O)Nc5c(O)c6ccc(O[C@@H]7OC(C)(C)[C@H](OC)[C@@H](OC(=O)c8ccc(C)[nH]8)[C@H]7O)c(C)c6oc5=O)c4C)c(=O)oc3c2C)OC1(C)C	143B	cell growth or viability, ATP luminescence	72 h	IC50	~1.2 µM
NC(=O)c1ccc(-c2ccccc2Cl)c2c3c([nH]c12)CC[C@H](N)C3	SGC-7901	cell growth or viability	–	IC50	0.033 µM
O=C1C=CC2(Oc3cccc4cccc(c34)O2)C2=C1C(O)CCC2O (stereo not shown)	OVCAR-3	cell growth or viability, resazurin	72 h	IC50	2 µM
CN(C)C(=O)c1cncc(N2Cc3cn(Cc4cccc(F)c4)nc3C2)n1	HEK293 expressing GluA1 and GluA2	glutamate excitotoxic cell death, CellTox Green	added: glutamate	IC50	> 5 µM
CCNC(=S)N/N=C(\C)c1c(O)c2ccccc2oc1=O	human Skin fibroblast	cell growth or viability, MTT	48 h	IC50	> 100 µM
CCN(C(=O)c1cc(F)ccc1Oc1nncnc1N1CCC2(C1)CN([C@H](CCCN(C)CCOC)C(C)C)C2)C(C)C	MOLM-14 (KMT2A-AF9, FLT3-ITD)	cell growth, live-cell imaging, spheroid-like	8 days	IC50	0.036 ± 0.095 µM
Cc1ccc(C(C)C)cc1.Cc1ccc(C(C)C)cc1.Cc1ccc(C(C)C)cc1.Cc1ccc(C(C)C)cc1.O=S(=O)(O)C(F)(F)F.O=S(=O)(O)C(F)(F)F.O=S(=O)(O)C(F)(F)F.O=S(=O)(O)C(F)(F)F.c1ccc2c3c4ccccc4c(c2c1)-c1cn(nn1)-c1cc[n+](cc1)[Ru-]1[O]c2c4ccccc4c4c5c(c6ccccc6c(c25)=[O+]1)=[O+][Ru-]([O]4)[n+]1ccc(cc1)-n1cc(nn1)-c1c2ccccc2c(c2ccccc12)-c1cn(nn1)-c1cc[n+](cc1)[Ru-]1[O]c2c4ccccc4c4c5c(c6ccccc6c(c25)=[O+]1)=[O+][Ru-]([O]4)[n+]1ccc(cc1)-n1cc-3nn1	AGS	cell growth, MTT	24 h, after 24 h preincubation in medium at 37 °C	IC50	7.6 ± 0.55 µM
O=C(c1ccnc(N2Cc3cn(Cc4ccc(F)cc4)nc3C2)n1)N1CCCCC1	HEK293 expressing GluA1 and GluA2	glutamate excitotoxic cell death, CellTox Green	added: glutamate	IC50	0.0024 µM
NCCCn1cc(COc2cc(C(=O)Nc3cc(OCCN)c4ccccc4n3)nc(C(=O)Nc3cc(OCCN)c4ccccc4n3)c2)nn1	HT-1080	cell growth or viability, ATP luminescence	72 h	IC50	> 40 µM
C=CC(=O)N1CCCC(n2c(=O)c3ncccc3n(Cc3ccc(Oc4ccccc4)cc3)c2=O)C1 (stereo not shown)	SU-DHL-5	cell growth or viability, MTT	72 h	IC50	5 µM
Cc1sc2c(c1C)C(c1ccc(Cl)cc1)=N[C@@H](CC(=O)NCCN(C)CCCCNC(=O)CCCCOc1cccc3c1C(=O)N([C@H]1CCC(=O)NC1=O)C3=O)c1nnc(C)n1-2	AGS	cell growth or viability, CCK-8	72 h	IC50	4.71 µM
CN(C)C(=O)c1cccc(N2Cc3cn(CC4CCCCC4)nc3C2)c1	HEK293 expressing GluA1 and GluA2	glutamate excitotoxic cell death, CellTox Green	added: glutamate	IC50	0.026 µM
O=C(O)c1ccc(Nc2c(-c3ccccc3)nc3ccc(CON=Cc4cccc5cccc(C(=O)O)c45)cn23)cc1 (mixture of isomers)	TDP1	enzyme activity, inhibitor	100 µM, unpurified compound	inhibition	-8.2%

Compound	tested on	assay	conditions	measurement	value
CC(C)=CC1OC(C)(C)C2C=C3C(=O)C(Cl)=CC(O)C3C3C(O)C4OC4C(=O)C132 (stereo not shown)	MDA-MB-435S	cell growth or viability, MTS	–	IC50	9.69 µM
CN(C)C(=O)c1cccc(N2Cc3cn(Cc4ccccc4F)nc3C2)c1	HEK293 expressing GluA1 and GluA2	glutamate excitotoxic cell death, CellTox Green	added: glutamate	IC50	0.039 µM
O=C1CS/C(=N\N=C\c2cccc3cc4ccccc4nc23)N1c1ccccc1	SK-BR-3	cell growth or viability, MTT	48 h	IC50	> 50 µM
Cc1ccc([N+](=O)[O-])cc1S(=O)(=O)N(C)/N=C/c1cnc2ccc(Br)cn12	HCC 2998	cell viability, MTS	–	IC50	> 10 µM
CN(C)C(=O)c1cccc(N2Cc3cn(Cc4ccc(F)c(Cl)c4)nc3C2)c1	HEK293 expressing GluA1 and GluA2	glutamate excitotoxic cell death, CellTox Green	added: glutamate	IC50	0.015 µM
CCOc1cncc(-c2ccc(NC(=O)C3(c4ccnc(NS(=O)(=O)C5CC5)n4)CCOCC3)nc2)n1	MSTO-211H	cell proliferation, CellTiter-Glo	72 h, Mesothelioma cancer	IC50	0.053 µM
CC(C)c1ccc(N(C)c2ccc3c(c2)OCC[C@H]3CNc2cnccc2C(=O)O)cc1	HCC70	cell growth or viability, ATP luminescence	7 days	IC50	0.011 µM
COc1cc(C=NOCc2ccc3nc(-c4ccccc4)c(Nc4ccc(C(=O)O)cc4)n3c2)cc(I)c1OC	TDP1	enzyme activity, inhibitor	100 µM, unpurified compound	inhibition	33.7%
CNS(=O)(=O)Nc1nccc(Cc2c(C)c3ccc(Oc4ncccc4F)cc3oc2=O)c1F	CAL-27	cell viability	7 days	IC50	> 1 µM
Cc1cc(C(=O)N2CCNCCNCCNCC2)c(O)c(C(=O)N2CCNCCNCCNCC2)c1	2C6 normal pancreas	cell viability, MTT	24 h	IC50	> 10000 µM
Cn1ncc(-c2ccc3c(=O)[nH]nc(CN)c3c2)c1-c1c(F)c(Cl)cc(OC2CC2)c1C#N	AGS	cell viability, inhibitor, CellTiter-Glo	120 h, baseline-subtracted	IC50	0.47 µM
O=C(NC1CCCCC1)c1cccc(N2Cc3cnn(Cc4ccc(F)cc4)c3C2)c1	HEK293 expressing GluA1 and GluA2	glutamate excitotoxic cell death, CellTox Green	added: glutamate	IC50	0.009 µM
O=c1cc(-c2ccc(O)cc2)oc2cc(O)cc([O][Ga+][O]c3cc(O)cc4oc(-c5ccc(O)cc5)cc(=O)c34)c12	LO2	cell viability, MTT	–	IC50	> 200 µM
COc1cc(-c2cc(C(C)=O)n3ccccc23)c(OC)cc1C(=O)N(C)C	MV4-11	cell growth or viability, ATP luminescence	–	IC50	2.55 µM
Fc1ccc(Cn2ncc3c2CN(c2nccc(N4CCC4)n2)C3)cc1	HEK293 expressing GluA1 and GluA2	glutamate excitotoxic cell death, CellTox Green	added: glutamate	IC50	4.6 µM
COc1cc(-c2cn(C)c(=O)c3cnccc23)c(OC)cc1CN(C)C	MV4-11	cell growth or viability, ATP luminescence	–	IC50	17.8 µM
CN1CCC(N[C@@H]2CCc3[nH]c4c(C(N)=O)ccc(-c5ccccc5Cl)c4c3C2)CC1	RKO	cell growth or viability	–	IC50	0.00014 µM

Some of these lines once more:
Compound	tested on	assay	conditions	measurement	value
NC(=O)c1ccc(-c2ccccc2Cl)c2c3c([nH]c12)CC[C@H](N)C3	SGC-7901	cell growth or viability	–	IC50	0.033 µM
O=C1CS/C(=N\N=C\c2cccc3cc4ccccc4nc23)N1c1ccc(F)cc1	SK-BR-3	cell growth or viability, MTT	48 h	IC50	> 50 µM
O=C(NC1CCCCC1)c1cccc(N2Cc3cnn(Cc4ccc(F)cc4)c3C2)c1	HEK293 expressing GluA1 and GluA2	glutamate excitotoxic cell death, CellTox Green	added: glutamate	IC50	0.009 µM
CN(C)C(=O)c1cncc(N2Cc3cn(Cc4cccc(F)c4)nc3C2)n1	HEK293 expressing GluA1 and GluA2	glutamate excitotoxic cell death, CellTox Green	added: glutamate	IC50	> 5 µM
